Measurements gathered from unrelated publications.
Numbered parts are unrelated; each lists some results of a single study. Positions count from the first letter of the parent shown.

Sample 1 — method: universal PBM; molecule type: double-stranded DNA, one strand shown; medium: in vitro; tested at: 600 nM; reading: higher = stronger binding; quantity: E-score
Target: Sal-like protein 4, full length isoform A (SALL4, Homo sapiens, UniProt Q9UJQ4, residues 1-1053)
Sequence of UniProt Q9UJQ4 (whole entry, looked up): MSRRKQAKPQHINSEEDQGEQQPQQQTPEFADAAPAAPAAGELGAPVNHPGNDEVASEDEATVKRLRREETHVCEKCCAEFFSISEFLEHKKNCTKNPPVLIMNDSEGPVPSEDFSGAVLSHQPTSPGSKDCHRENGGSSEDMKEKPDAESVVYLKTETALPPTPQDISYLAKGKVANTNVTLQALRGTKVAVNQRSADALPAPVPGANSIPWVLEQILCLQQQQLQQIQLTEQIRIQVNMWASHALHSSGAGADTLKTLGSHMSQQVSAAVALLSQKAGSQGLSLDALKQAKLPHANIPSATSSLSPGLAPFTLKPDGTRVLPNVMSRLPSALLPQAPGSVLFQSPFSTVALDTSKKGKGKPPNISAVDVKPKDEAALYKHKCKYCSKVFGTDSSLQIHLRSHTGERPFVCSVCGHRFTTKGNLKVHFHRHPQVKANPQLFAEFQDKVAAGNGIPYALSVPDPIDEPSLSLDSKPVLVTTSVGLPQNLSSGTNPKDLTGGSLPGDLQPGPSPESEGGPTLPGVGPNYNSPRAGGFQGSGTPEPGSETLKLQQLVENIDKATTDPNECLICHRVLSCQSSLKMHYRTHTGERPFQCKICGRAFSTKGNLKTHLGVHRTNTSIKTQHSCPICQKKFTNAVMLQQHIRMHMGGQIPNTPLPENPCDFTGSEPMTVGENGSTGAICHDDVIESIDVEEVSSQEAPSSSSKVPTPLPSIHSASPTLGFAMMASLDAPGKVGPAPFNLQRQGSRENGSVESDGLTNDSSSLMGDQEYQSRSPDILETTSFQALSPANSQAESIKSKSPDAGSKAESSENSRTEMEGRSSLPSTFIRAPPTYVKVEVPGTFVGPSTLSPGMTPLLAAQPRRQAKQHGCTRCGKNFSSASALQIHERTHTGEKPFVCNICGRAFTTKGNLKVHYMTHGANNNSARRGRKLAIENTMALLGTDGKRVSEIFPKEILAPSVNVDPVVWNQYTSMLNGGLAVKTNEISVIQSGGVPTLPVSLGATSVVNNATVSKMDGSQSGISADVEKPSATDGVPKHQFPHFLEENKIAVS
Notes: 8-mer, flanks averaged, mean of replicates
CAGAGATG: 0.118
AAGACTGG: -0.00764
AGACACTA: 0.088
CAGTTATC: 0.145
CGGGGCCA: -0.421
CTATCGCA: 0.00243
ATAACCTG: 0.163
ACGTCCAA: 0.0201
AAGGATAA: 0.117
ATGTGTAG: 0.133
CAAACAGC: 0.0252
AAACCAAG: 0.0963

Sample 2 — method: protein binding microarray; molecule type: double-stranded DNA, one strand shown; medium: in vitro; tested at: not given; baseline: not given; reading: higher = stronger binding; quantity: E-score
Target: Histone acetyltransferase KAT6A, winged helix 1, GST fusion (KAT6A, Homo sapiens, UniProt Q92794, residues 1-85)
Notes: 8-mer, flanks averaged, mean of 2 arrays, mostly near background
Construct (chain): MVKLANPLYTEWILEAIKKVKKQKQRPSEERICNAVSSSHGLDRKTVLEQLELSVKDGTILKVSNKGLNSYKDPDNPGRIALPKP
GGAAGGCA: -0.0954
CGATTGGC: -0.0176
CGAGAGAC: -0.0572
CGGTACCG: 0.41
AGTCGATC: -0.14
CATTCTGA: -0.18
CGAGAGAG: -0.143
CGTAGTCA: -0.0763
CTCCACGA: -0.173
GACCATTA: -0.0428
GGACTACC: 0.0407
CGTCTGAG: 0.00319
AACTTGTC: 0.0345
GGCTTTCA: -0.0528
GCTGTCGA: 0.0496
ATTGACGC: -0.0392
AAGAGAGG: -0.179
ACGCGAGG: 0.11

Sample 3 — target: CCNE2, cyclin fold, Cln2 fusion (human); method: yeast growth competition, sequencing; medium: yeast; notes: strong parent motif; baseline: not given; reading: higher = stronger binding; quantity: normalised enrichment score
Parent: CDKN1B docking peptide (human); PSACRNLFGPVDH
R5A: -0.308
F8W: 0.859
D12S: 0.876
A3C: 2.43
H13L: 1.57
D12F: 0.82
R5A L7A: -0.292
D12K: 1.1

Single results of other studies
PhoQ, residues 284 288 289 292 302 303 SLSVQF  fold induction (PhoP, residues 12 14 15 18 19 QQAYL (Escherichia coli, UniProt P23836); Sort-seq, measured: YFP reporter; E. coli; PhoQ-PhoP variant library, together with: 10 µM Mg2+; baseline: high Mg2+ state, higher = stronger signaling): 10.5

Some of these lines once more (sample 3):
F8W: 0.859
D12S: 0.876
A3C: 2.43
H13L: 1.57
D12F: 0.82
